Assay results gathered from unrelated publications.
Each numbered part is a random draw from the data of one study; scales do not carry over between parts.
UniProt O15294, sequence (whole entry, looked up): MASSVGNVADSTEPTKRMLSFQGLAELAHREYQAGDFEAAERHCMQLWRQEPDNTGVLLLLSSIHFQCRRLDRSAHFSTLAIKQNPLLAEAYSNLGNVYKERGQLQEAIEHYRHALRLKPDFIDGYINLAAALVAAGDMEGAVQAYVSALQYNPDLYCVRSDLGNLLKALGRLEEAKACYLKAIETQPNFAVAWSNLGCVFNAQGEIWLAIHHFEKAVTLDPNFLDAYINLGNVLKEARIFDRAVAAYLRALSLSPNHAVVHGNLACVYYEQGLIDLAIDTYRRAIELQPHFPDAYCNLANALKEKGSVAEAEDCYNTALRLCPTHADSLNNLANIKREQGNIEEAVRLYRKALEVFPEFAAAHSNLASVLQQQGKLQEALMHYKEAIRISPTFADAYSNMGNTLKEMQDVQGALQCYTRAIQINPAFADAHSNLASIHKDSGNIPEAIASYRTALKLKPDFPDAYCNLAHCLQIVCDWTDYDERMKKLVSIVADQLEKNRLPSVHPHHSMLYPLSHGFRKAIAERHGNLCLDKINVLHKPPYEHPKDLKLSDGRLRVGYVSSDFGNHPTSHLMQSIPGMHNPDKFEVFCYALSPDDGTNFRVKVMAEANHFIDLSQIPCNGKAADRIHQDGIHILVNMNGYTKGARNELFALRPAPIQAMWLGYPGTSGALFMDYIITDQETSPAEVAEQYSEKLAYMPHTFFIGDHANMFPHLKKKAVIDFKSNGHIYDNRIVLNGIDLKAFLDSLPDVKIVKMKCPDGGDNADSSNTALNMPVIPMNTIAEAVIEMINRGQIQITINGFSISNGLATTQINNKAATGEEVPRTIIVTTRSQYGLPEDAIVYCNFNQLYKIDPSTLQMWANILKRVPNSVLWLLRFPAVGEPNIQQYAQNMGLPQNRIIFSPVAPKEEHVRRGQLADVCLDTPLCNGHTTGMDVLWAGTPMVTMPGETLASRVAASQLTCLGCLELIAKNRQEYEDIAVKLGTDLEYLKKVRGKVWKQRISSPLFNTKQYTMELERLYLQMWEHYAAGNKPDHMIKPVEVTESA

Series 1
Target: Centromere-binding protein 1, full length, N-terminal tag (CBF1, Saccharomyces cerevisiae, UniProt P17106, residues 1-351)
UniProt P17106, sequence (whole entry, looked up): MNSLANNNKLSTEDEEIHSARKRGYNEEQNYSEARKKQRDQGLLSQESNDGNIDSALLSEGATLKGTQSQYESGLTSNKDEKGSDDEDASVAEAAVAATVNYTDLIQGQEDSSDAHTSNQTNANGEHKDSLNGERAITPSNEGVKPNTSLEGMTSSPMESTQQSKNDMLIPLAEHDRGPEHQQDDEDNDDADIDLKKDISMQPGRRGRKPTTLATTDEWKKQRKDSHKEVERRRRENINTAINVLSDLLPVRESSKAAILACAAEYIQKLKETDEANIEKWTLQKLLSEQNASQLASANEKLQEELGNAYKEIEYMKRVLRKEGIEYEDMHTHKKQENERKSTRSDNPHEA
Method: protein-binding microarray
Molecule type: double-stranded DNA, one strand shown
Medium: in vitro
Tested at: 0.8 µM
Notes: whole 60-bp probe, no competitor
Reading: higher = stronger binding
Endpoint: fluorescence intensity
Strand = CTACCTTCTAAAGGTGACCCGCCTGATATGCGATTCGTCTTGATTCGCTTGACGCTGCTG; value = 540 a.u.
Strand = GAATAAAAAACCAAATAGCTGATGTATGTATATTAGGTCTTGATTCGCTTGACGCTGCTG; value = 493 a.u.
Strand = GAACGAAAAATAAATCATATGAGATTTTAGTACTAGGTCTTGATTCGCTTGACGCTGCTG; value = 531 a.u.
Strand = GAATCCTGTTTATCCCAGATCACGTTTGTTCCATAGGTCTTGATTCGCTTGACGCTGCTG; value = 2050 a.u.
Strand = CTACGGTTTTCATATCATCACCCTCTGTTGTCCTTCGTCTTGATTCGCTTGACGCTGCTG; value = 557 a.u.
Strand = GAAGCAAGGATAATCCACATGCCGAAAATACGATAGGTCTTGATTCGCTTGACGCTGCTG; value = 651 a.u.
Strand = CTATATACTGTTAAACATGTGAACTTTTCTGTATTCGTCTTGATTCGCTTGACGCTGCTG; value = 712 a.u.
Strand = GAATTCCTAGGGTATCATGTGTCTGGCCCAAAATAGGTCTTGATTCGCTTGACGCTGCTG; value = 811 a.u.

Series 2
Target: Sal-like protein 4, full length isoform B (SALL4, Homo sapiens, UniProt Q9UJQ4-2, residues 1-616)
Method: universal PBM
Molecule type: double-stranded DNA, one strand shown
Medium: in vitro
Tested at: not given
Notes: 8-mer, flanks averaged, mean of replicates
Reading: higher = stronger binding
Endpoint: E-score
Construct (chain): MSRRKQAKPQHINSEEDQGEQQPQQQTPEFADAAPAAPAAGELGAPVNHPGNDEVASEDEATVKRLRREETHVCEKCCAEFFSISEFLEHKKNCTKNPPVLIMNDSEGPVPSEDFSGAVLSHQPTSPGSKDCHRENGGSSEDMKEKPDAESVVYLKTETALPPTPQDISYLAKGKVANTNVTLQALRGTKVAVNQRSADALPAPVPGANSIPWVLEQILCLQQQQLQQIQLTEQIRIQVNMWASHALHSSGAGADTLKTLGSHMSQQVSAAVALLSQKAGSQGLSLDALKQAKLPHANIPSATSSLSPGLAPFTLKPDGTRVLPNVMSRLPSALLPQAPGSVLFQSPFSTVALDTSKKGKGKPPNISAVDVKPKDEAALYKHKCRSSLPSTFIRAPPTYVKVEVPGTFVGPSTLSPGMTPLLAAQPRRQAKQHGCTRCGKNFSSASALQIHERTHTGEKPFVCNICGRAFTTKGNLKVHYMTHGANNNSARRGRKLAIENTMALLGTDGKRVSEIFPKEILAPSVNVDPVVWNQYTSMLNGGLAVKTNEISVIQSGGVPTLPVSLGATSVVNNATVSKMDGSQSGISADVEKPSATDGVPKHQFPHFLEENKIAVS
Strand = ATAGAGTC; value = -0.0701
Strand = GCCCTACC; value = -0.13
Strand = CGATTGCA; value = -0.00618
Strand = CGTCCACA; value = -0.131
Strand = ACCATCCA; value = -0.0622
Strand = GTCTGATA; value = 0.128
Strand = GCCAACCC; value = -0.183
Strand = AATGATAT; value = 0.373

Further values, each from its own experiment
Substance = PhoQ, residues 284 288 289 292 302 303 SSTMSV; target = PhoP, residues 12 14 15 18 19 NQAHL (Escherichia coli, UniProt P23836); test = Sort-seq, refers to: YFP reporter; system = E. coli; conditions = PhoQ-PhoP variant library, together with: 10 µM Mg2+; how to read = reference: high Mg2+ state, higher = stronger signaling; endpoint = fold induction; value = 1.1
Substance = HRMDHHDHQPHYDAS; target = UDP-N-acetylglucosamine--peptide N-acetylglucosaminyltransferase 110 kDa subunit (OGT, Homo sapiens, UniProt O15294); test = binding, phage display NGS; system = peptide; conditions = concentration not given; how to read = reference: input library; endpoint = enrichment fold change; value = 6.21

Some of these lines once more (series 1):
Strand = GAATCCTGTTTATCCCAGATCACGTTTGTTCCATAGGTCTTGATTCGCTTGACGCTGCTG; value = 2050 a.u.
